Published values gathered from unrelated publications.
A part holds a random share of what one study measured. Positions count from the first letter of the parent shown.

Set 1
Target: Ras GTPase-activating protein-binding protein 1, C-terminal RGG region (G3BP1, Homo sapiens, UniProt Q13283)
UniProt Q13283, sequence (whole entry, looked up): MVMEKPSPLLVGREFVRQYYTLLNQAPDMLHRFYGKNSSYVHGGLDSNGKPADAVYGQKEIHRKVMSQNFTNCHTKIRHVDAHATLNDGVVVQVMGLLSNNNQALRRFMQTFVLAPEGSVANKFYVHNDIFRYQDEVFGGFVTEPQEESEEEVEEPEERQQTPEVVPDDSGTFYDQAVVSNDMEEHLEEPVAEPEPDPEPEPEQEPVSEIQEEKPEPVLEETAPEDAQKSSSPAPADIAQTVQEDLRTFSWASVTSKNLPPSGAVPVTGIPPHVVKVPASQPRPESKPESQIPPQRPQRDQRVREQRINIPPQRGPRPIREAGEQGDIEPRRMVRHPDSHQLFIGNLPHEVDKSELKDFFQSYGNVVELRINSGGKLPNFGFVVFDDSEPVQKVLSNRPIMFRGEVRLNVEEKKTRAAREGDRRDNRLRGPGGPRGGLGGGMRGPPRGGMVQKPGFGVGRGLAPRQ
Method: RNA Bind-n-Seq
Form: RNA
Sample: in vitro
Tested at: 1 µM
Setting: whole 134-nt RNA, ends assumed
Added: 150 mM KCl
Baseline: input library
Reading: higher = stronger binding
Measurement: log2 enrichment
Sequence = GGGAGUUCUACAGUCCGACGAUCUUGAACAUCUGCAGGAAAAGAGGCGAGAGGGCACUUUGAGAGUGGAUACCUACACUCUAGUGCAGCCUGAGGCAGAAGACCAUGUUGAGAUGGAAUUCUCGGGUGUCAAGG; result = -1.69
Sequence = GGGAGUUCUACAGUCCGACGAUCGCAGGAAGUAAAAACAAAUGGAAAUGCUUCGGAUAGUGGCAGGAAAGGGGGUUGCUAAGGAAAGGGUGGGAUGGGAGUGGGUAAAGAGUUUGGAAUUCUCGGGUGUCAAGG; result = 1.83
Sequence = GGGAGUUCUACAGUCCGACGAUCUAACUUUAGAGGAGGGUCUGAUGGAUAUGGCAGUGGACGUGGAUUUGGGGAUGGCUAUAAUGGGUAUGGAGGAGGACCUGGAGGUGGCAAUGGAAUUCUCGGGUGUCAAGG; result = -1.02
Sequence = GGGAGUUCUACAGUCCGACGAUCGUCCUGUGCUACACAUCGUAUGUACCGAAUCGGGUUUUUGGGUUUUUGGGUUUUUGGGGAAAGUAUUAUGUUACGCCGUUCGGAUCUGCAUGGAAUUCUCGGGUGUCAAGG; result = 0.586
Sequence = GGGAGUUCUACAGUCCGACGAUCGCAGGGAGUAAAAACAAAUGGAAAUGCUUCGGAUAGUGGCAGGGGUGGGGGUUGCUAAGGAAAGGGUGGGAUGGGAGUGGGUAAAGAGUUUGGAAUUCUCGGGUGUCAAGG; result = 1.69
Sequence = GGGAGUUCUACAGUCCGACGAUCUGGGAGGUGGAUUUUGUUUAUUUUUUUAGCUCAUUUCCAGGGGUGGGAAUUUUUUUUUAAUAUGUGUCAUGAAUAAAGUUGUUUUUGACAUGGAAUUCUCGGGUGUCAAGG; result = 3.27
Sequence = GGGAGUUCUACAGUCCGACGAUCGCAGGAAGUAAAAACAAAUGGAAAUGCUUCGGAUAGUGGCAGGGGUGGGGGUUGCUAAGCAAAGGGUGGGAUGGGAGUGGGUAAAGAGUUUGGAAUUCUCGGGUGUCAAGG; result = 2.01
Sequence = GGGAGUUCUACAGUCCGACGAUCUGGGAGGUGGAUUUUGUUUAUUUUUUUAGCUCAUGUCCAGGGGUGGGAAUUUUUUUUUAAUAUGUGUCAUGAAUAAAGUUGUUUUUGAAAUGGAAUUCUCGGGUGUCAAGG; result = 2.69
Sequence = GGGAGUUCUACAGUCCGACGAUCCAAGUCCUGUGCUACACAUCGUAUGUACCGAAUCGGGAAAAAAAGGGAGGGAGGGAAAGUAUUAUGUUACGCCGUUCGGAUCUGCACUUCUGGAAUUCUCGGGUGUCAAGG; result = 1.58

Set 2
Target: Histone acetyltransferase KAT6A, both winged helices, GST fusion (KAT6A, Homo sapiens, UniProt Q92794, residues 1-181)
Method: protein binding microarray
Form: double-stranded DNA, one strand shown
Sample: in vitro
Tested at: not given
Setting: 8-mer, flanks averaged, mean of 2 arrays, mostly near background
Baseline: not given
Reading: higher = stronger binding
Measurement: E-score
Target sequence (chain): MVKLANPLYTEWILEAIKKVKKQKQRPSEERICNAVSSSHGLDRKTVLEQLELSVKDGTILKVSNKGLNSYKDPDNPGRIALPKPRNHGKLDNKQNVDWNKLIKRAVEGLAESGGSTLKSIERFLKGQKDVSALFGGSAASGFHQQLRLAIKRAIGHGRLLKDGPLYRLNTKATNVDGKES
Sequence = AGACAATG; result = -0.0489
Sequence = CTTTAGTA; result = -0.177
Sequence = AGGAGAAG; result = -0.303
Sequence = CCCCCACA; result = -0.303
Sequence = CCCCGTAA; result = 0.0344
Sequence = CGTTCCCC; result = 0.1
Sequence = GCTCGTCA; result = 0.0557
Sequence = AATTGACG; result = -0.00011
Sequence = ATTCGAAG; result = -0.076
Sequence = GCTCTACC; result = -0.0187
Sequence = CTTGAGAA; result = -0.234
Sequence = CCGTCGCC; result = 0.305
Sequence = CATCTAAG; result = -0.113
Sequence = GTCTGGGA; result = -0.183
Sequence = TCAGTCCA; result = -0.148
Sequence = ATCTCCAT; result = -0.167
Sequence = AGGAGACG; result = 0.0497
Sequence = ATAACGTC; result = 0.0237
Sequence = TGTTCCAA; result = -0.152

Set 3
Target: CCND1, cyclin fold, Cln2 fusion (human)
Method: yeast growth competition, sequencing
Sample: yeast
Setting: weak parent motif
Baseline: not given
Reading: higher = stronger binding
Measurement: normalised enrichment score
Starting sequence: CDKN1B docking peptide (human); PSACRNLFGPVDH
Substitution = P1L; result = 0.0428
Substitution = S2A; result = 0.684
Substitution = F8R; result = -0.112
Substitution = R5K; result = 0.167
Substitution = S2C; result = 0.369
Substitution = P1M; result = 0.705
Substitution = C4I; result = 0.545
Substitution = P1W; result = 0.554
Substitution = D12R; result = 0.319
Substitution = F8M; result = 0.105
Substitution = S2F; result = 0.315
Substitution = C4A; result = 0.899
Substitution = G9H; result = 0.163
Substitution = N6L; result = 1.22

Set 4
Target: Interferon regulatory factor 5, full length, phosphomimetic (IRF5, Homo sapiens, UniProt Q13568-2, residues 1-514, K96S/S451D/S453D/S456D/S462D)
Method: protein-binding microarray
Form: double-stranded DNA, one strand shown
Sample: in vitro
Tested at: 250 nM
Setting: 60-bp whole probe
Added: salmon DNA 0.4 mg/ml
Baseline: random background probes
Reading: higher = stronger binding
Measurement: log fluorescence
Shared flanks, not repeated: GCCTAGCAC … GTCTTGATTCGCTTGACGCTGCTG
Sequence = GACGGTATCCCTCTCCTGACGTGCTAG; result = -0.0311 z-score
Sequence = TTAGGTTTCCTTCTCCGTTAGTGCTAG; result = 1.1 z-score
Sequence = TTCGAACTGAGACTGGATTAGTGCTAG; result = 0.173 z-score
Sequence = GATGGACTGGACTTTCGGGACGTGCTA; result = 4.33 z-score
Sequence = ACGTCTTCATGTTTTTTTCTGTGCTAG; result = 1.02 z-score
Sequence = GATGAACTGAGTCTCGAGACGTGCTAG; result = 0.175 z-score
Sequence = TTAGGATTCGACTATCGGTTAGTGCTA; result = 7.08 z-score
Sequence = TGAGGTATCGACACTGGGTTAGTGCTA; result = 1.07 z-score
Sequence = GACGGTTTCGACTGTCGGGACGTGCTA; result = 5.87 z-score
Sequence = GACGGACTGGGGTTTCGGGATGTGCTA; result = 1.77 z-score
Sequence = GACGGTTTCGATTCCGGGACGTGCTAG; result = 8.4 z-score
Sequence = GACGGTTTCCTTTTCCTGCCGTGCTAG; result = 1.29 z-score
Sequence = GACGGTCTCGGACTGAGGACGTGCTAG; result = -0.355 z-score
Sequence = GACGGGCTGGGGTATCGGGACGTGCTA; result = -0.0925 z-score
Sequence = TCAATTGTCTCTGTCCCACTGTGCTAG; result = 0.356 z-score

Set 5
Target: ABI1, truncated, D143A, DHFR fusion (Arabidopsis thaliana, UniProt P49597)
Method: DHFR PCA, dose-response
Sample: yeast
Setting: Hill fit, mean, not affinity
Added: (+)-ABA, dose series
Reading: lower = more sensitive
Measurement: ABA EC50
Starting sequence: PYL1, truncated, DHFR fusion (Arabidopsis thaliana, UniProt Q8VZS8); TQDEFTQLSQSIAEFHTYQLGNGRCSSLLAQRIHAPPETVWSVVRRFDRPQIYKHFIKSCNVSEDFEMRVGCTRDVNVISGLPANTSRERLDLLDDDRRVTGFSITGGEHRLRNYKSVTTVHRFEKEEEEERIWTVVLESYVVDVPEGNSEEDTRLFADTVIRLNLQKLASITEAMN
Substitution = G107Q; result = 60.4 µM
Substitution = P36S; result = 2.31 µM
Substitution = E129T; result = 1.94 µM
Substitution = Q19F; result = 8.12 µM
Substitution = T39D; result = 2.5 µM
Substitution = T39F; result = 7.06 µM
Substitution = S150I; result = 42.9 µM
Substitution = E139N; result = 5.98 µM
Substitution = N22D; result = 1.54 µM
Substitution = S63C; result = 2.88 µM
Substitution = V43Y; result = 10.5 µM

Set 6
Target: Prothrombin, mature alpha-thrombin (F2, Homo sapiens, UniProt P00734)
Method: aptamer microarray, sandwich
Form: DNA with 2'F-ANA
Sample: in vitro
Tested at: 200 nM
Setting: whole 15-mer aptamer, many near background
Added: Cy3 exosite-II aptamer, 400 nM
Reading: higher = stronger binding
Measurement: mean fluorescence intensity
Sequence: GGTTGGTGTGGTTGG
Modification = 2'F-ANA at 2 3 4 8 9 12 14; result = 362 a.u.
Modification = 2'F-ANA at 1 3 5 9 11; result = 59.4 a.u.
Modification = 2'F-ANA at 1 2 4 6 8 11; result = 105 a.u.
Modification = 2'F-ANA at 3 5 6 7 8 9 14 15; result = 55.6 a.u.
Modification = 2'F-ANA at 5 6 7 8 9 11 14 15; result = 47.3 a.u.
Modification = 2'F-ANA at 1 3 5 10 11 13 15; result = 45.7 a.u.
Modification = 2'F-ANA at 4 8 12 13 15; result = 398 a.u.
Modification = 2'F-ANA at 5 6 7 8 9 10 13; result = 52.8 a.u.
Modification = 2'F-ANA at 1 4 5 7 8 10 13 14; result = 41.7 a.u.
Modification = 2'F-ANA at 3 12; result = 1340 a.u.
Modification = 2'F-ANA at 1 5 7 8 12 13; result = 94.7 a.u.
Modification = 2'F-ANA at 1 3 4 5 6 8 9 10 11 12 15; result = 51.9 a.u.
Modification = 2'F-ANA at 1 4 5 7 8 11 12 13 14 15; result = 46.4 a.u.
Modification = 2'F-ANA at 1 2 3 4 5 7 8 10 12 14; result = 49.6 a.u.
Modification = 2'F-ANA at 1 3 4 6 9 11 13; result = 110 a.u.

Set 7
Target: Sal-like protein 4, full length isoform B (SALL4, Homo sapiens, UniProt Q9UJQ4-2, residues 1-616)
Method: universal PBM
Form: double-stranded DNA, one strand shown
Sample: in vitro
Tested at: not given
Setting: 8-mer, flanks averaged, mean of replicates
Reading: higher = stronger binding
Measurement: E-score
Sequence = AACCAGGG; result = -0.108
Sequence = AACAACTT; result = 0.132
Sequence = AGTTTGTA; result = 0.116
Sequence = AATACGAT; result = 0.3
Sequence = ACCAGGCT; result = -0.148
Sequence = CCTTGCGA; result = -0.202
Sequence = AGAGCATG; result = -0.0964
Sequence = CGACGCAC; result = -0.0467
Sequence = GTCCTGGA; result = -0.153
Sequence = AGGACCTC; result = -0.178
Sequence = CTAGCTCC; result = -0.213
Sequence = ACAGGAGT; result = 0.0157
Sequence = ATTGCCGC; result = -0.0869

Excerpt of the above (set 4):
Sequence = TTCGAACTGAGACTGGATTAGTGCTAG; result = 0.173 z-score
Sequence = TTAGGATTCGACTATCGGTTAGTGCTA; result = 7.08 z-score
Sequence = GACGGACTGGGGTTTCGGGATGTGCTA; result = 1.77 z-score
Sequence = GACGGTTTCCTTTTCCTGCCGTGCTAG; result = 1.29 z-score
Sequence = GACGGTCTCGGACTGAGGACGTGCTAG; result = -0.355 z-score
Sequence = GATGGACTGGACTTTCGGGACGTGCTA; result = 4.33 z-score
Sequence = TTAGGTTTCCTTCTCCGTTAGTGCTAG; result = 1.1 z-score
